Results pooled from the literature.
A part holds a random share of what one study measured. Substitutions count along the parent as printed.

Block 1
Target: FOSL1, bZIP domain (human)
Technique: DHFR protein complementation
Matrix: yeast
Notes: single substitutions, most at no-binding floor
Relative to: wild-type JUN-FOS pair
Direction: higher = stronger binding
Starting sequence: JUN, bZIP domain (human); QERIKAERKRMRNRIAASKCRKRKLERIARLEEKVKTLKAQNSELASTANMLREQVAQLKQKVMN; partner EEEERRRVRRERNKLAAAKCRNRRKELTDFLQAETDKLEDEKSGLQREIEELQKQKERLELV
Variant | binding fitness [natural log]
A49V | -0.495
A29K | -0.52
R53N | -1.24
E44G | -0.757
A49I | -0.866
I28H | -0.663
S47H | -0.33
A49D | -1.3
L52P | -1.35
K36I | -0.575
S43I | -0.431
A57T | -0.372
K34S | -0.575
A46V | -0.545
K36T | -0.643
K36G | -0.714

Block 2
Target: Sal-like protein 4, full length isoform A (SALL4, Homo sapiens, UniProt Q9UJQ4, residues 1-1053)
UniProt Q9UJQ4, sequence (whole entry, looked up): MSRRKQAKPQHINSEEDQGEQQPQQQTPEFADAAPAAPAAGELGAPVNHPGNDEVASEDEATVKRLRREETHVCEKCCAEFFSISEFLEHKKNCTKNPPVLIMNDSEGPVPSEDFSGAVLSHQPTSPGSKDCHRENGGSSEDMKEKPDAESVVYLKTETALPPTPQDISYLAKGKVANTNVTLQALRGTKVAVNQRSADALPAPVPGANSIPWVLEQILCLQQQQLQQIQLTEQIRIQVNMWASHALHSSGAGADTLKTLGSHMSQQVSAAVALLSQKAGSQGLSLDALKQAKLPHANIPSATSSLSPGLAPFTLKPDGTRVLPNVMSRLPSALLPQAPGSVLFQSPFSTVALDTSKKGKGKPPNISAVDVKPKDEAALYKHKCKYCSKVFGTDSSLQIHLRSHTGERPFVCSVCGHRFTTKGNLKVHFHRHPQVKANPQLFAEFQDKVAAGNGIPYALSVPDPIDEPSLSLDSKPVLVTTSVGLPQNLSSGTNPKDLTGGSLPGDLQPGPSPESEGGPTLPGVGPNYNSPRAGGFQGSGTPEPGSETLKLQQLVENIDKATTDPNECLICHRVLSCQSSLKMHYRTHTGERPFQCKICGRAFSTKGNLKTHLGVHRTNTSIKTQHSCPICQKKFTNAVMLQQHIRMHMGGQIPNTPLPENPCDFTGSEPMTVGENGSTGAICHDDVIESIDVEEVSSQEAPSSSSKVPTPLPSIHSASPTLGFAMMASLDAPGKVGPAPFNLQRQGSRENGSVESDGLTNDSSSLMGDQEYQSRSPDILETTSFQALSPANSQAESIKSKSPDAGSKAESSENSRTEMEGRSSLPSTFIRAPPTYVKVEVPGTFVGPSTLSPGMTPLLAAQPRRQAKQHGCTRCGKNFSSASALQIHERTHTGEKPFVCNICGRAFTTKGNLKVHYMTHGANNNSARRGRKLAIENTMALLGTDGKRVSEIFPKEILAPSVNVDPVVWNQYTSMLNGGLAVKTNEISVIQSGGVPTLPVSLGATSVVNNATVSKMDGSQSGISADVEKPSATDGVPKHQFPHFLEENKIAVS
Technique: universal PBM
Form: double-stranded DNA, one strand shown
Matrix: in vitro
Tested at: 600 nM
Notes: 8-mer, flanks averaged, mean of replicates
Direction: higher = stronger binding
Oligonucleotide | E-score
CCGGAACA | -0.0887
CTGTTGGC | -0.219
GAGAGGGA | -0.14
ACTCAGCT | -0.0482
ATCATAGA | 0.292
GAGTCCAA | -0.149
AGTGTCTC | -0.236
ACCTGACA | -0.0641
AAGATCAA | 0.141
CGCAAGCA | 0.062
ACGGTAGC | -0.147
CAGTCACG | -0.18
CAAAACTA | 0.263
ACGGCGTA | 0.0341
CGAATCTC | -0.128
ATTGGTCC | 0.0966
CCGCACAG | -0.275

Block 3
Target: Histone acetyltransferase KAT6A, winged helix 2, GST fusion (KAT6A, Homo sapiens, UniProt Q92794, residues 85-181)
Technique: protein binding microarray
Form: double-stranded DNA, one strand shown
Matrix: in vitro
Tested at: not given
Notes: 8-mer, flanks averaged, mean of 2 arrays, mostly near background
Relative to: not given
Direction: higher = stronger binding
Target sequence (chain): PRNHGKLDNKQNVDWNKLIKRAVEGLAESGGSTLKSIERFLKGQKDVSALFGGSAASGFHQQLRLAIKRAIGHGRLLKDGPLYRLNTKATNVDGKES
Oligonucleotide | E-score
CCGCACGG | 0.18
GGACGTAA | -0.27
CCCTCAAC | 0.0106
AATTTTGA | 0.216
GTTATATA | -0.0638
CATCTTGG | -0.0636
AGCTTCCA | 0.127
CGAGAAAC | 0.0738
AGGACGCC | 0.0463
GTGTATCA | 0.0489
AGGTAGAG | -0.103
GCTCGTGA | -0.0663
TCCCCGGA | 0.132
TAGGCTGA | -0.0602
CAGCAGGA | 0.0742
AGCTAATG | -0.0446
CGAATCTC | 0.00756
CGGGGCCC | 0.0738
AATTGATA | 0.149
AATACGCA | -0.0943
GACGTACC | -0.0884
ATCTTGAA | -0.0605
ATCCCAAC | -0.0442
ATGTGAGG | 0.0929
CAGGAGCC | 0.0588

Block 4
Target: CCNF, cyclin fold, Cln2 fusion (human)
Technique: yeast growth competition, sequencing
Matrix: yeast
Notes: strong parent motif
Relative to: not given
Direction: higher = stronger binding
Starting sequence: HIRA docking peptide (human); SLSKRKLELEVET
Variant | normalised enrichment score
SLSKKKLELEVET [R5K] | 0.431
SLSKRALELEVET [K6A] | 0.836
SLSKRKLELEAET [V11A] | 0.191
SLSKAKLELEVET [R5A] | -0.507
SLSKRKAELEVET [L7A] | -0.998
SLSKRKLELEVAT [E12A] | 0.746
SLSKRKLELEVEA [T13A] | 2.2

Block 5
Target: Interferon regulatory factor 7, full length, phosphomimetic (IRF7, Homo sapiens, UniProt Q92985, residues 1-503, S101K/S471D/S472D/S475D/S476D/S477D/S483D/S484D/S487D)
Technique: protein-binding microarray
Form: double-stranded DNA, one strand shown
Matrix: in vitro
Tested at: 250 nM
Notes: 60-bp whole probe
With: salmon DNA 0.4 mg/ml
Relative to: random background probes
Direction: higher = stronger binding
Constant ends, left off below: GCCTAGCAC … GTCTTGATTCGCTTGACGCTGCTG
Residues (chain): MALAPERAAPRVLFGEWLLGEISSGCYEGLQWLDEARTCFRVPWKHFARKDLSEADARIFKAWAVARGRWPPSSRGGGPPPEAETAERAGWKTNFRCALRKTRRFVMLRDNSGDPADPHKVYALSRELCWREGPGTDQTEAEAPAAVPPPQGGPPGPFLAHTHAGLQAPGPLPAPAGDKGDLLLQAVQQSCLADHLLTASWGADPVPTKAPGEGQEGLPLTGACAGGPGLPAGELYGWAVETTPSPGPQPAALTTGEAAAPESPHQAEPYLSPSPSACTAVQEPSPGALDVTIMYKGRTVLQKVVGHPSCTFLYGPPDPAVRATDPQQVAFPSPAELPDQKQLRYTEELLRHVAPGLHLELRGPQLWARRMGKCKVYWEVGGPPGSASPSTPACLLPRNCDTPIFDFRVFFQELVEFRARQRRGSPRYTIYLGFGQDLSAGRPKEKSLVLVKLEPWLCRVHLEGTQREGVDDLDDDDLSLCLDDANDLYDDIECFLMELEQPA
Oligonucleotide | log fluorescence
GACGGTCTCGGAATCGGGACGTGCTAG | 1.66 z-score
TTAGAATTCAGTCTCGATTAGTGCTAG | 1.7 z-score
GACGGTCTCGATTTCGGGACGTGCTAG | 4.65 z-score
ACCTTTGTTTTTTTCTATATGTGCTAG | 1.43 z-score
TCAATTACCTCATCTTTCACTGTGCTA | 0.645 z-score
TTAGAGATCAGTTTCGATTAGTGCTAG | 8.16 z-score
GACGGACTGGACTATCGGGAAGTGCTA | -0.644 z-score
TTAGGTCTGGGTTTCGGTTAGTGCTAG | 6.47 z-score
GACGATTTCTGTTTCGAGACGTGCTAG | 2.92 z-score
GACGCTTTCAGTATCGAGACGTGCTAG | 0.888 z-score
TACGGTATCCTTTTCCTGACGTGCTAG | 1.43 z-score
TTAGGACTGAGTCTCGGTTAGTGCTAG | 1.43 z-score
TGGGCTACCGGGTCCCTCTTGTGCTAG | -0.549 z-score
TTAGGTATCCTTTTCCTATAGTGCTAG | 2.04 z-score
TCACATCTCGGAGATCTCACTGTGCTA | 0.227 z-score
TCAGGTATCGGTTTCGGTTAGTGCTAG | 10.8 z-score
GGACTGTCAGCCACTTTTTGGTGCTAG | -0.569 z-score
GACTGTATCGACACTGGGGACGTGCTA | -0.225 z-score
TTAGGTCTCGGTCTAGGTTAGTGCTAG | 1.09 z-score
AAGTTTCTCCTTTCCAAATAGTGCTAG | 5.4 z-score

Block 6
Target: Prothrombin, mature alpha-thrombin (F2, Homo sapiens, UniProt P00734)
Technique: aptamer microarray, sandwich
Form: DNA with 2'F-ANA
Matrix: in vitro
Tested at: 200 nM
Notes: whole 15-mer aptamer, many near background
With: Cy3 exosite-II aptamer, 400 nM
Direction: higher = stronger binding
Oligonucleotide: GGTTGGTGTGGTTGG
Modification | mean fluorescence intensity
2'F-ANA at 1 4 8 10 11 13 14 15 | 123 a.u.
2'F-ANA at 1 2 3 4 5 8 11 14 15 | 43.2 a.u.
2'F-ANA at 3 4 5 8 10 11 12 13 14 | 47.9 a.u.
2'F-ANA at 1 2 3 8 9 | 293 a.u.
2'F-ANA at 2 3 6 7 10 15 | 356 a.u.
2'F-ANA at 1 4 5 11 12 14 | 43.2 a.u.
2'F-ANA at 2 4 7 8 11 13 14 15 | 104 a.u.
2'F-ANA at 3 4 6 9 14 | 264 a.u.
2'F-ANA at 2 4 11 13 | 221 a.u.
2'F-ANA at 1 4 6 10 11 12 14 15 | 89.1 a.u.
2'F-ANA at 2 3 4 5 13 15 | 63.4 a.u.
2'F-ANA at 1 4 5 9 15 | 56.7 a.u.
2'F-ANA at 1 2 3 4 6 7 9 10 11 13 15 | 107 a.u.
2'F-ANA at 3 4 5 8 10 11 15 | 50.9 a.u.
2'F-ANA at 1 4 5 6 9 14 | 56.4 a.u.
2'F-ANA at 2 3 4 9 11 12 13 | 593 a.u.
2'F-ANA at 2 3 4 6 11 13 14 15 | 192 a.u.
2'F-ANA at 3 6 7 8 9 11 13 | 983 a.u.
2'F-ANA at 1 2 3 4 8 9 10 | 61.6 a.u.
2'F-ANA at 1 4 6 14 | 51.4 a.u.
2'F-ANA at 2 3 4 5 7 9 10 13 | 46.1 a.u.

Block 7
Target: Hepatocyte nuclear factor 3-beta, forkhead domain (FOXA2, Homo sapiens, UniProt Q9Y261, residues 142-269)
Technique: protein-binding microarray
Form: double-stranded DNA, one strand shown
Matrix: in vitro
Tested at: not given
Notes: k-mer, scored over probes, only values ≥0.25
Direction: higher = stronger binding
Target sequence (chain): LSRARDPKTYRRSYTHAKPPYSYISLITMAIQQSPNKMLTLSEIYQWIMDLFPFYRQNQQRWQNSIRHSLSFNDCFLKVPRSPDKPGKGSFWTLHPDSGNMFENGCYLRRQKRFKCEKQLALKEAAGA
Oligonucleotide | E-score
ACAAATAC | 0.355
ATAATAAG | 0.284
CTAAATAC | 0.255
ATAATTGA | 0.285
CATCATTA | 0.311
AAATGCAA | 0.264
CAAATACA | 0.348
CATAGTTA | 0.337
ACTAAACA | 0.265
CAACATAC | 0.274
AATCACAA | 0.274

Block 8
Target: ABI1, truncated, D143A, DHFR fusion (Arabidopsis thaliana, UniProt P49597)
Technique: DHFR PCA, dose-response
Matrix: yeast
Notes: Hill fit, not affinity, not high confidence
With: (+)-ABA, dose series
Direction: lower = more sensitive
Starting sequence: PYL1, truncated, DHFR fusion (Arabidopsis thaliana, UniProt Q8VZS8); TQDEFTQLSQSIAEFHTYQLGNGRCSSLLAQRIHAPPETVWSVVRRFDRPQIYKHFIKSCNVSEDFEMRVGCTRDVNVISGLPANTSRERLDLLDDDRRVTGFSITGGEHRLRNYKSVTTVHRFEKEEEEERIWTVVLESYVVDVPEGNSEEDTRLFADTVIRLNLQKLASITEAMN
Variant | ABA EC50 [µM]
G81N | 281
N149L | 291
V44H | 0.388
V137D | 0.673
E128H | 3.49
T135D | 0.87
F157R | 4.25
N149V | 105
P83I | 2080
K58P | 1060
F103G | 8.6
E89M | 0.21
I57H | 176
V40E | 1.58
E89I | 1.41
